Experimental data collected from several papers.
A part holds a random share of what one study measured. Positions count from the first letter of the parent shown.

Sample 1
Target: RNA binding protein fox-1 homolog 2, RRM domain, GST-SBP tag (RBFOX2, Homo sapiens, UniProt O43251-10, residues 100-194)
Technique: RNA Bind-n-Seq
Form: RNA
Medium: in vitro
Tested at: 365 nM
Notes: natural RNA segment, single round, ends assumed
Reference: no-protein control
Direction: higher = stronger binding
Constant ends, left off below: GGGAGUUCUACAGUCCGACGAUC … UGGAAUUCUCGGGUGCCAA
Target sequence (chain): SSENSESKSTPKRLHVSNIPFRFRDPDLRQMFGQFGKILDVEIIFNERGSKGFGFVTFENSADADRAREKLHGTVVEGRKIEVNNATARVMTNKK
| Oligonucleotide | RBNS enrichment (R) |
| --- | --- |
| CUCAAGUAUUCUAGAAUCUGCUGGGACAUUGGGCUGUUUCUCAACUUAUGUGUCUACUUGGAGAGAAAAGAAUGUCUUUGAACAAAAUGGCUAACUUUCACAAAACUGUC | 0.564 |
| ACACUUAUAAGUUCUUUUCAGCUUCUACAAUAAAGAAAAGUUCAGAAAUGCUUUCAGUUACCAAAGUUAUAACGAUAUAUUUAGGAAAAGCUACAAAUAACACUUACUUU | 0.751 |
| GAAUGAUGCCGAAUGGAAUGUUUUGUGCAUGACCUUUUAACCUUUGGCUAUUGCCAAUUCCCCACUGCAAAGGGGAAGGCAGAUUUUAUGAAGAGUUUUAGGAAUAAAUA | 24.5 |
| GUUUCUUUUCACAUCCCAGCCUCCCAUGGGCACUUCUAAGAAGAGAGGGGAUUUCUUGGAAAAGGAGAGAGGAAUCCCCUAGAGCAGGGAAAGCAGUGCCUGCCAGCUGU | 0.921 |
| GGGGGAUUGUGGUGAGUGAGAAUCAAGGCCACCUUGUGUGUUUUCUCACUCUCGAAUGCAAGUGGGAGAGGGAAAAUGACUCGGGACGCCAUUGUAACGGUUCCUGGAAG | 4.9 |
| UGUAUUGAAUAUUAAGUGUCACUGAAGCAAUGUUUGUGUUGACUAGAAACGUAAGAUGACUUGUGUAGCACCUCUUUAUAAGCACACAGCUCAUCUUAAUAUUUUCCAUU | 0.74 |
| AUAAAAUGGAUGCCCUUCAUGUUUUAUUGCUAUUACUAAAUGUCAAGAUUGUAUGCUAUUAUGUCUUGUAAAAAUUCCUUCUGUUGGUGUAAAUAUGGAAAUGCCACAUU | 3.12 |
| AAAGGAAGGUUUUCACCUGUAGAAAGCCCCCUGCCUCCAGCCAAAUAGUCCCAUGCUGACUUUCUAUCUUCCUUUCUCAAACUGUCUUAGGAAGGACCUUCAGUGCAGAU | 0.377 |
| AUUUCAUUGUUUUAAUCAAGGGCUUAAGGUGUCCUCAUUCUUGGACAUGAGAUGUAUUUAAGGAAAGUAGUCACUAUUCAAAGAACAAAUUAAAGUGUUUAUAACAAACU | 0.325 |
| CCCUGCAAGGCCCACACUCACGCCCUGUGGGUGAUGGUCACGGUGGGUGGGUGGGGGCUGACCCCAGCUUCCAGGGGACUGUCACUGUGGACGCCAAAAUGGCAUAACUG | 0.642 |
| UGUCAGCUCAUUUCUAAGAUGCCUUCAGAGAUCUGAGACAUGACAUUAAGAAUGGAGUAGUAACUAGAGUGUUAUCUCAGUGCCUGUCUCAUAGUAUAGAAAUGACAAGC | 2.03 |
| UCUCUUUCUCCCCUUGUUUACCCUCCAUUCCCACUCUGAUUUAGACUUCUUGAUUGUCGAUCUCUGUCACAUCCGAUGAUUGUUUUGGUUUCUAUUCCCUUUCUAACUGC | 0.873 |

Sample 2
Target: PABPC1L2, full length, GST fusion (mouse, UniProt A0ABA7IW68)
Technique: RNAcompete
Form: RNA
Medium: in vitro
Tested at: 20 nM
Notes: 7-mer, probes averaged, single round
Reference: mean of 7-mers
Direction: higher = stronger binding
Residues (chain): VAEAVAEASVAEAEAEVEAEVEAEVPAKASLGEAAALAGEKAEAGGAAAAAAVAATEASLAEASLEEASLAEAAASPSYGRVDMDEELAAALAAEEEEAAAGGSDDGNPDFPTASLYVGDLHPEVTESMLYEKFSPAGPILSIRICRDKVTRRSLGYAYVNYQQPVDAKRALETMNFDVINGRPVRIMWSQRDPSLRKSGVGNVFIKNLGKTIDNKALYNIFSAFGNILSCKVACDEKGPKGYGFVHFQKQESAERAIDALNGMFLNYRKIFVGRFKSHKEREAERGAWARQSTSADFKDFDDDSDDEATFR
| Oligonucleotide | 7-mer Z-score |
| --- | --- |
| CACCGCC | -0.206 |
| AGUUUUC | -0.409 |
| UCUACGU | -0.271 |
| AUGUACC | -0.219 |
| ACACGGC | 0.211 |
| GCACGAC | -0.166 |
| GACCACC | -0.0772 |
| AUGCGUA | -0.0844 |
| CAAUGGC | 0.102 |
| UGCGAUA | 0.0388 |
| UCAUCAG | -0.188 |
| CAAGGUU | -0.215 |
| GGGAACG | 0.305 |
| GGCAGCA | 0.432 |

Sample 3
Target: CCNE2, cyclin fold, Cln2 fusion (human)
Technique: yeast growth competition, sequencing
Medium: yeast
Notes: strong parent motif
Reference: not given
Direction: higher = stronger binding
Starting sequence: E2F1 docking peptide (human); PPVKRRLDFETDH
| Change | normalised enrichment score |
| --- | --- |
| R5M | 0.127 |
| V3L | 1.62 |
| V3G | 1.29 |
| D8N | 6.44 |
| D8S | 5.01 |
| F9M | 1.74 |
| L7I | 3.91 |
| L7H | 0.128 |
| P2G | 6.07 |
| T11H | 5.81 |
| K4R | 6.14 |
| D8H | 5.93 |
| P2L | 4.83 |
| L7M | 1.08 |
| E10K | 5.76 |
| L7Y | 0.275 |
| L7E | 0.218 |

Other studies, line by line
| Substance | target | assay | test system | conditions | how to read | quantity | result |
| --- | --- | --- | --- | --- | --- | --- | --- |
| PhoQ, residues 284 288 289 292 302 303 SQSLSM | PhoP, residues 12 14 15 18 19 NMSSL (Escherichia coli, UniProt P23836) | Sort-seq, refers to: YFP reporter | E. coli | PhoQ-PhoP variant library, with: 10 µM Mg2+ | reference: high Mg2+ state, higher = stronger signaling | fold induction | 21.2 |

Repeated from above (sample 1):
| Oligonucleotide | RBNS enrichment (R) |
| --- | --- |
| GUUUCUUUUCACAUCCCAGCCUCCCAUGGGCACUUCUAAGAAGAGAGGGGAUUUCUUGGAAAAGGAGAGAGGAAUCCCCUAGAGCAGGGAAAGCAGUGCCUGCCAGCUGU | 0.921 |
| GGGGGAUUGUGGUGAGUGAGAAUCAAGGCCACCUUGUGUGUUUUCUCACUCUCGAAUGCAAGUGGGAGAGGGAAAAUGACUCGGGACGCCAUUGUAACGGUUCCUGGAAG | 4.9 |
| UGUAUUGAAUAUUAAGUGUCACUGAAGCAAUGUUUGUGUUGACUAGAAACGUAAGAUGACUUGUGUAGCACCUCUUUAUAAGCACACAGCUCAUCUUAAUAUUUUCCAUU | 0.74 |
| AUAAAAUGGAUGCCCUUCAUGUUUUAUUGCUAUUACUAAAUGUCAAGAUUGUAUGCUAUUAUGUCUUGUAAAAAUUCCUUCUGUUGGUGUAAAUAUGGAAAUGCCACAUU | 3.12 |
| AAAGGAAGGUUUUCACCUGUAGAAAGCCCCCUGCCUCCAGCCAAAUAGUCCCAUGCUGACUUUCUAUCUUCCUUUCUCAAACUGUCUUAGGAAGGACCUUCAGUGCAGAU | 0.377 |
| AUUUCAUUGUUUUAAUCAAGGGCUUAAGGUGUCCUCAUUCUUGGACAUGAGAUGUAUUUAAGGAAAGUAGUCACUAUUCAAAGAACAAAUUAAAGUGUUUAUAACAAACU | 0.325 |
| CCCUGCAAGGCCCACACUCACGCCCUGUGGGUGAUGGUCACGGUGGGUGGGUGGGGGCUGACCCCAGCUUCCAGGGGACUGUCACUGUGGACGCCAAAAUGGCAUAACUG | 0.642 |
